Assay results collected from several papers.
Protocols differ between the studies behind these lines. ± gives the spread as reported.
U2AF2: U2AF2 148-342 (Homo sapiens, UniProt P26368)
UniProt P26368, sequence (whole entry, looked up): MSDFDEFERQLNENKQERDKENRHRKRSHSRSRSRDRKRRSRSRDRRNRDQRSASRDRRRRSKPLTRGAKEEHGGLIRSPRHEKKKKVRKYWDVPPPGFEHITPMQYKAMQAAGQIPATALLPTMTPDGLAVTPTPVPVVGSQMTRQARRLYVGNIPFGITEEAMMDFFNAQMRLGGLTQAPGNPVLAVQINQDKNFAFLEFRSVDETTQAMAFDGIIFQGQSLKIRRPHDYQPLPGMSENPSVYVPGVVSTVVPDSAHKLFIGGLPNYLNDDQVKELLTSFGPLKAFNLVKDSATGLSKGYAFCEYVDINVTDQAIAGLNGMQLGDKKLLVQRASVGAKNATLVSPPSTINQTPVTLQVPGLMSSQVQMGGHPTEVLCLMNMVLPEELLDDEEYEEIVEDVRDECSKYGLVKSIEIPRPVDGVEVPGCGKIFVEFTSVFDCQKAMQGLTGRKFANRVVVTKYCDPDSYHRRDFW
B1: enzyme (Pseudomonas putida, UniProt Q88KZ0); chain MWKVPVTQKPDQCLGEWIDREALAEAMIPLIGQLYRNNNVVSSIYGRSLINRSVISILKAHRFARHRQTDETELSVHETFPLLKAMSELKLGAASVDLGKLANKFKQEGNGRTAEQFVREELADVVGQQNASARKGTDVVLYGFGRIGRLLARILIEKTGGGDGLRLRAIVVRKGAENDLVKRASLLRRDSVHGPFDGTITIDEANNTITANGNLIQVIYAKSPSEVDYTQYGIDNALIVDNTGVWRDADGLGQHLACPGAARVILTAPGKGALKNIVHGINHGDITADDKIISAASCTTNAIVPVLKAINDQYGIVNGHVETVHSFTNDQNLIDNFHKGSRRGRAAPLNMVITETGAATAAAKALPVLKGKLTGNAIRVPTPNVSMAILNLNLEKATTRDEINEYLRQTAMHSELHKQIDYVASQEVVSTDFVGSRHAGVVDAEATIANDNRVVLYVWYDNEFGYSCQVVRVMEDMAGVNPPAFPR
B2: enzyme D423N/R186H/R7G (Gallus gallus, UniProt A0A8V0ZKC1); chain MAGPSGGARRLLLPLRLRPPPPIGPEPPCRTGSSAAAAAAGPARLKGPAELPGPGLLRTFVWLFLRGYLLHTHRLQLMSRRIYGPIWKSTFGHYQNINIGSPVVLEQLLRQEGKYPMRSDMALWKEHRDTRRLPYGPFTEEGERWYRLRQVLNKRLLKPSEAVLYADAIGEVVSDLMVRLRDERSHSPSGVLVGDVANLLYRFALEGISYILFETRIGCLKQQVPPETQHFIDSINLMFKNSIFATVLPRWSRKVLPFWDRYLDSWDTIFAFGKRLIDRKMKELEGHVEKGKEVSQGYLSYLLASGHLSLDEVYGSVAELLLAGVDTTSNTLCWALYHLSRDLGIQDTLYQELKAVVPPDRFPGAEDIPKMPMLRAVIKETLRVYPVVPTNARVFYEKDIVIGDYLFPKNTLFVLAHYAMSHNETYFPEPERFLPQRWLRGHGSPHHPFSSIPFGYGVRACVGRRIAELEMHLALARIIQAYEVRPDPRGVEVTSVSRIVLVADKPINLEFIARPGAP
B3: SCO6712 (Streptomyces coelicolor, UniProt Q9XAL8); chain AKGITARTAPAGGEVRHLKMYAEKLADGQMGYGFEKGKASVPGPLIEVNEGDTLHIEFTNTMDVRASLHVHGLDYEISSDGTAMNKSDVEPGGTRTYTWRTHKPGRRDDGTWRPGSAGYWHYHDHVVGTEHGTGGIRNGLYGPVIVRRKGDVLPDATHTIVFNDMTINNRKPHTGPDFEATVGDRVEIVMITHGEYYHTFHMHGHRWADNRTGILTGPDDPSRVIDNKITGPADSFGFQIIAGEGVGAGAWMYHCHVQSHSDMGMVGLFLVKKPDGTIPGYEPHEHGGATAKSGESGEPTGGAAAHEHEH
B4: enzyme (Methylibium petroleiphilum, UniProt A2SI32); chain PFAQIYLIEGRTEEQKRAVIEKVTQAMMEAVGAPKENVRVWIHDVPKENWGIGGVSAKALGR
B5: enzyme (Salinispora arenicola, UniProt A8M783); chain MASTPWISFTTDYGLADGFVAACHGVLARLAPTARVIDVTHLVPPGDVRRGAAVLAQTVPYLPAAVHVAVVDPGVGTARRAIALTAGNGLLVGPDNGLLLDAATALGGVDAAVELTNPDWLGARMSATFHGRDVFAPVAARLALGAPLADAGPAVEPGALVRLPTPLVQPETDGFTAEVLTVDHFGNVQLAATGALLESLPRSLRVAHRPAVHARTFDDAPPGGLLVHVDSAGLVAVAVNGGRAADLLAVTPGDQLRVTAG
B6: gdh (Bacillus subtilis, UniProt P12310); chain MYPDLKGKVVAITGAASGLGKAMAIRFGKEQAKVVINYYSNKQDPNEVKEEVIKAGGEAVVVQGDVTKEEDVKNIVQTAIKEFGTLDIMINNAGLENPVPSHEMPLKDWDKVIGTNLTGAFLGSREAIKYFVENDIKGNVINMSSVHEVIPWPLFVHYAASKGGIKLMTETLALEYAPKGIRVNNIGPGAINTPINAEKFADPKQKADVESMIPMGYIGEPEEIAAVAAWLASKEASYVTGITLFADGGMTQYPSFQAGRG
B7: enzyme Y157F (Mus musculus, UniProt P60334); chain MERTELLKPRTLADLIRILHELFAGDEVNVEEVQAVLEAYESNPAEWALYAKFDQYRYTRNLVDQGNGKFNLMILCWGEGHGSSIHDHTDSHCFLKLLQGNLKETLFDWPDKKSNEMIKKSERTLRENQCAYINDSIGLHRVENVSHTEPAVSLHLFSPPFDTCHAFDQRTGHKNKVTMTFHSKFGIRTPFTTSGSLENN
B8: enzyme A167S/Y136L (Bradyrhizobium diazoefficiens, UniProt Q45222); chain MIQTERAVQQVLEWGRSLTGFADEHAVEAVRGGQYILQRIHPSLRGTSARTGRDPQDETLIVTFYRELALLFWLDDCNDLGLISPEQLAAVEQALGQGVPCALPGFEGCAVLRASLATLAYDRRDYAQLLDDTRCLSAALRAGHAQAVAAERWSYAEYLHNGIDSISYANVFCCLSLLWGLDMATLRARPAFRQVLRLISAIGRLQNDLHGCDKDRSAGEADNAVILLLQRYPAMPVVEFLNDELAGHTRMLHRVMAEERFPAPWGPLIEAMAAIRVQYYRTSTSRYRSDAVRGGQRAPA
UniProt Q5ATH9, sequence (whole entry, looked up): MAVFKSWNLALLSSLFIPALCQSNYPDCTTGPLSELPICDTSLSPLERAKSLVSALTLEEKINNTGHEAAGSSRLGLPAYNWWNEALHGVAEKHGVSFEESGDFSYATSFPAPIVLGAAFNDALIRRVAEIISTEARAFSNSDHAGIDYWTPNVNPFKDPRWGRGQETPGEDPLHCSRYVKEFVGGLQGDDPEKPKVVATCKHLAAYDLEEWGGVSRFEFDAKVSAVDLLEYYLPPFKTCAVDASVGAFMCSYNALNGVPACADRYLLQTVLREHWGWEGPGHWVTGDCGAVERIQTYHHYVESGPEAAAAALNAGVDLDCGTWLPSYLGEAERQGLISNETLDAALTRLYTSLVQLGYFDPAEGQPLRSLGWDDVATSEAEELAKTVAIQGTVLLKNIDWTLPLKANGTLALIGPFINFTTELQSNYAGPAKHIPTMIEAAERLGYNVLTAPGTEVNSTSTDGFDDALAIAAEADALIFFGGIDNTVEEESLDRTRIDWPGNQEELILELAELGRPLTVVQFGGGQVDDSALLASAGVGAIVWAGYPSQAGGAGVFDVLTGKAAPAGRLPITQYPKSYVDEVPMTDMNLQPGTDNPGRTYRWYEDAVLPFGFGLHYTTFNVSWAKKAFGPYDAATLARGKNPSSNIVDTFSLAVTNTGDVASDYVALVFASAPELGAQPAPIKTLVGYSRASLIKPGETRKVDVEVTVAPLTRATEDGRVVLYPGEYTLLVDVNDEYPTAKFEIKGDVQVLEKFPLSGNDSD
UniProt P78804, sequence (whole entry, looked up): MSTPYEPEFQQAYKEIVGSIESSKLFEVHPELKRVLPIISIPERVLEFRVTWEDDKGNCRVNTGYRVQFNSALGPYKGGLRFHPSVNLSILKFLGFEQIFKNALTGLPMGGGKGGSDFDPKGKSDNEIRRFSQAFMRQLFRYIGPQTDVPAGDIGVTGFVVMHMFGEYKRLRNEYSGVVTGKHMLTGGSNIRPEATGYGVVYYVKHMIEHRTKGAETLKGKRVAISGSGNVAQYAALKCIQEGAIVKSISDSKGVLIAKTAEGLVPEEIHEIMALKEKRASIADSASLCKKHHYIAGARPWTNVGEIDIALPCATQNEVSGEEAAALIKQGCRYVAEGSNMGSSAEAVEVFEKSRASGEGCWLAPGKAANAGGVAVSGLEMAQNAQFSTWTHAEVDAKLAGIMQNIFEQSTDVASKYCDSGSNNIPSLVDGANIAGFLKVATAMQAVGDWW
UniProt P0A9Q9, sequence (whole entry, looked up): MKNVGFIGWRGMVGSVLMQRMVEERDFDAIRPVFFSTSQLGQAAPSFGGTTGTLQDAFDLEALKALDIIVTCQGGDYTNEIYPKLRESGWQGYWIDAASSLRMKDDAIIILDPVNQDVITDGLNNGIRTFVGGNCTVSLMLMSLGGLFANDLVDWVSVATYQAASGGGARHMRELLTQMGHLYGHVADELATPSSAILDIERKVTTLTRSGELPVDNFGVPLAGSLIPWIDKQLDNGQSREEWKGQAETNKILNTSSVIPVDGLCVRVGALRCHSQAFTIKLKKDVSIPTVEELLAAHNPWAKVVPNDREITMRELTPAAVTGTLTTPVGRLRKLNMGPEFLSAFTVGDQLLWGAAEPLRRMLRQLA
UniProt P21980, sequence (whole entry, looked up): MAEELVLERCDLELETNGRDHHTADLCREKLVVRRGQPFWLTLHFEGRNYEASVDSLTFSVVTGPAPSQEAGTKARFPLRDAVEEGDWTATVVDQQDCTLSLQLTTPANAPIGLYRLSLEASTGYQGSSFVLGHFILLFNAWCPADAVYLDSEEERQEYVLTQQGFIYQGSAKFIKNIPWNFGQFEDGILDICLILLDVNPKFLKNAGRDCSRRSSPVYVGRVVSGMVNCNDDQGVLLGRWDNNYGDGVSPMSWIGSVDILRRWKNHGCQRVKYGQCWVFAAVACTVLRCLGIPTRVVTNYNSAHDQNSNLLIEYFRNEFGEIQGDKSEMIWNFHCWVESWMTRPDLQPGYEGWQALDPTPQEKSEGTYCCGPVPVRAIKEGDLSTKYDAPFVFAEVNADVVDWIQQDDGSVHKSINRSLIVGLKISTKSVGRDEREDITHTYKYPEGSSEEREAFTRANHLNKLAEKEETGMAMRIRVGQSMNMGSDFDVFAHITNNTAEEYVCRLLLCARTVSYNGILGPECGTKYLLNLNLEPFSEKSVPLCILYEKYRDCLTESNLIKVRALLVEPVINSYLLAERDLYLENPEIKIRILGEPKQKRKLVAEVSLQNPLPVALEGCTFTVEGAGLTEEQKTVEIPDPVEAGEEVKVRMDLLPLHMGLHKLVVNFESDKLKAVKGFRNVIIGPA
UniProt Q84DC3, sequence (whole entry, looked up): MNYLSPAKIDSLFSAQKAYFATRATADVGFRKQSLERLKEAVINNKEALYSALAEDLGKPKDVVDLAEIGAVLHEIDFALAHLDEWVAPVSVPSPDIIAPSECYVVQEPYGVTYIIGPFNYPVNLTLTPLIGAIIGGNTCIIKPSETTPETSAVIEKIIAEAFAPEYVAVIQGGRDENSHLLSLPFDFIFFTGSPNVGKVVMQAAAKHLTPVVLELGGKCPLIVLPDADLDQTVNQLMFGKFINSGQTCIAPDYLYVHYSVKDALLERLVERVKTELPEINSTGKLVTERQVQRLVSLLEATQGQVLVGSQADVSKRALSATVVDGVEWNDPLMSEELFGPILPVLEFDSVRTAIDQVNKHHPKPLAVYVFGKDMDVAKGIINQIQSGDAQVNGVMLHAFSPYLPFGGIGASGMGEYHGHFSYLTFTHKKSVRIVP
UniProt P18105, sequence (whole entry, looked up): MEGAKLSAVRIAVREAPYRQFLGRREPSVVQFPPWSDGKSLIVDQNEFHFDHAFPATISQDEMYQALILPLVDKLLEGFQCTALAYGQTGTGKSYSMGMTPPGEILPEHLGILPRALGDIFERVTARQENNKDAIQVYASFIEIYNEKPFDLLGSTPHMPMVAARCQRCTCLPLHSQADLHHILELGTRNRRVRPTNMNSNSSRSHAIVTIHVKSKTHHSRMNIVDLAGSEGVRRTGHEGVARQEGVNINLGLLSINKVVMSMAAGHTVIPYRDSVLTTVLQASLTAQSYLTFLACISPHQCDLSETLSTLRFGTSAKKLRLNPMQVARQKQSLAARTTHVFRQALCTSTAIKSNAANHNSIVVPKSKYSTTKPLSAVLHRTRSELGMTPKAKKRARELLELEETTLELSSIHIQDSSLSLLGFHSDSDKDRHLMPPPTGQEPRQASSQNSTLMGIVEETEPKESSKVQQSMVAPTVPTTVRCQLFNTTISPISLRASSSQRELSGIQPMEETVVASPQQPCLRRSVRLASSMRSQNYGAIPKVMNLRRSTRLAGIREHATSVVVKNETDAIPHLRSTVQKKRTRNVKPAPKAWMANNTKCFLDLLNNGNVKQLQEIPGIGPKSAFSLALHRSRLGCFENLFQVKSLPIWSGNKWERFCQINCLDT

`enzyme (Rhodopseudomonas palustris, UniProt Q6N7F5)` gave a kcat of 3.01 ± 0.87 s⁻¹ (CC(C)C(=O)O; steady-state kinetics; pH 7.5, 37 °C).
`B1 (enzyme)` has a kcat of 9 ± 0.3 s⁻¹ (O=C[C@H](O)COP(=O)(O)O; steady-state kinetics; together with: NADP+).
`B2 (enzyme D423N/R186H/R7G)` has a kcat of 0.0108 ± 0.00106 s⁻¹ (C=C1CC[C@H](O)C/C1=C/C=C1\CCC[C@]2(C)[C@@H]([C@H](C)CCCC(C)C)CC[C@@H]12; steady-state kinetics; pH 7.4, 37 °C, not purified).
With `B3 (SCO6712)` the kcat was 1.9 ± 0.2 s⁻¹ (CCn1c(=NN=c2sc3cc(S(=O)(=O)O)ccc3n2CC)sc2cc(S(=O)(=O)O)ccc21; steady-state kinetics; pH 7, 37 °C, NaCl 150 mM, together with: O2 cosubstrate).
With `GGGAGCAGGAGAGAGGUCAGAUGUUAGAUAAUUACAAGAGAUGUGGCAUCGGACCUAUGCGUGCUAGUGUGA (ssRNA; 2'-fluoro pyrimidines)` the relative binding was -8.2 RU (TGM2 2-687 (Homo sapiens, UniProt P21980); SPR; RNA; together with: MgCl2 5 mM; higher = more binding).
The kcat of `mdlD (Pseudomonas putida, UniProt Q84DC3)` is reported as 120 ± 2.63 s⁻¹ (NC(=O)c1ccc[n+]([C@@H]2O[C@H](COP(=O)(O)OP(=O)(O)OC[C@H]3O[C@@H](n4cnc5c(N)ncnc54)[C@H](O)[C@@H]3O)[C@@H](O)[C@H]2O)c1; steady-state kinetics; pH 7.4, 30 °C, cofactor varied).
`acsA (Pseudomonas chlororaphis, UniProt Q5CD72)` gave a kcat of 0.123 ± 0.00167 s⁻¹ (CC(C)CC(=O)O; steady-state kinetics; pH 7).
For `CUGGUUUCA (ssRNA)`, the Kd was 1660 nM (U2AF2; sequencing of bound RNA; RNA; motif only).
The kcat of `B4 (enzyme)` is reported as 107 ± 3 s⁻¹ (C/C(=C\C=C(/O)C(=O)O)C(=O)O; steady-state kinetics; pH 7.3, 24 °C).
With `enzyme (UniProt A0A097IUD8)` the kcat was 33.9 ± 0.4 s⁻¹ (Nc1ncnc2c1ncn2[C@@H]1O[C@H](COP(=O)(O)OP(=O)(O)O)[C@@H](O)[C@H]1O; steady-state kinetics; pH 6, 25 °C, together with: 16 mM PEP).
`B5 (enzyme)` gave a kcat of 0.0075 ± 0.00117 s⁻¹ (C[S+](CC[C@H](N)C(=O)O)C[C@H]1O[C@@H](n2cnc3c(N)ncnc32)[C@H](O)[C@@H]1O; steady-state kinetics; pH 7.9, 37 °C, apparent, together with: 1-200 µM SAM).
`B6 (gdh)` gave a kcat of 13 ± 0.495 s⁻¹ (NC(=O)c1ccc[n+]([C@@H]2O[C@H](COP(=O)(O)OP(=O)(O)OC[C@H]3O[C@@H](n4cnc5c(N)ncnc54)[C@H](O)[C@@H]3O)[C@@H](O)[C@H]2O)c1; steady-state kinetics; pH 8, 50 °C).
`enzyme (Tannerella forsythia, UniProt G8UMQ6)` gave a kcat of 155 s⁻¹ (C[C@@H]1O[C@@H](Oc2ccc([N+](=O)[O-])cc2Cl)[C@@H](O)[C@H](O)[C@@H]1O; steady-state kinetics; pH 8.4, 40 °C).
`HNL E79H/H103V/K236M/T11G (Hevea brasiliensis)` has a kcat of 0.00533 ± 0.000333 s⁻¹ (CC(=O)Oc1ccc([N+](=O)[O-])cc1; steady-state kinetics; pH 7.2, 22 °C).
`bxlB (Aspergillus nidulans, UniProt Q5ATH9)` gave a kcat of 15.2 s⁻¹ (O=[N+]([O-])c1ccc(O[C@@H]2OC[C@@H](O)[C@H](O)[C@H]2O)cc1; steady-state kinetics; pH 5, 50 °C).
With `enzyme (Drosophila melanogaster, UniProt P18105)` the kcat was 0.016 s⁻¹ (Nc1ncnc2c1ncn2[C@@H]1O[C@H](COP(=O)(O)OP(=O)(O)OP(=O)(O)O)[C@@H](O)[C@H]1O; steady-state kinetics; pH 6.8, 25 °C, together with: microtubules, Taxol, Mg2+).
`B7 (enzyme Y157F)` gave a kcat of > 0.41 s⁻¹ (N[C@@H](CS)C(=O)O; steady-state kinetics; pH 7.5, 37 °C).
`enzyme (Acinetobacter baumannii, UniProt A0A5P1UDB1)` has a kcat of 0.0123 ± 0.0003 s⁻¹ (O=C(O)c1cccc(Cl)c1O; steady-state kinetics; pH 7.5, 37 °C, apparent).
With `enzyme F30A (Homo sapiens, UniProt Q08623)` the kcat was 1.83 s⁻¹ (O=c1[nH]cc([C@@H]2O[C@H](COP(=O)(O)O)[C@@H](O)[C@H]2O)c(=O)[nH]1; steady-state kinetics; pH 7, 25 °C).
The Kd of `UAUUUCUUU (ssRNA)` is reported as 710 nM (U2AF2; sequencing of bound RNA; RNA; motif only).
`human apolipoprotein D`: “log2 fold change” -2.19 (PP6C (human); co-immunoprecipitation, IP-MS; CYB5R4 knockout cells; concentration not given; reference: CYB5R4 knockout over parental).
With `asd (Escherichia coli, UniProt P0A9Q9)` the kcat was 0.007 ± 0.003 s⁻¹ (N[C@@H](CCC=O)C(=O)O; steady-state kinetics; pH 7.6, apparent, together with: 1 mM NADP+).
For `enzyme (Schizosaccharomyces pombe, UniProt P78804)`, the kcat was 140 ± 4 s⁻¹ (NC(=O)C1=CN([C@@H]2O[C@H](COP(=O)(O)OP(=O)(O)OC[C@H]3O[C@@H](n4cnc5c(N)ncnc54)[C@H](O)[C@@H]3O)[C@@H](O)[C@H]2O)C=CC1; steady-state kinetics; pH 7, 30 °C, apparent).
For `B8 (enzyme A167S/Y136L)`, the kcat was 0.05 ± 0.00467 s⁻¹ (C=C1CC[C@@H]2C(C)(C)CCC[C@@]2(C)[C@@H]1CC/C(C)=C/COP(=O)(O)OP(=O)(O)O; steady-state kinetics).
The kcat of `enzyme (Staphylococcus aureus, UniProt Q2G294)` is reported as 3.3 s⁻¹ (CCC(=O)O; steady-state kinetics; pH 7, 30 °C, apparent).

Some of these lines once more:
For `enzyme (Schizosaccharomyces pombe, UniProt P78804)`, the kcat was 140 ± 4 s⁻¹ (NC(=O)C1=CN([C@@H]2O[C@H](COP(=O)(O)OP(=O)(O)OC[C@H]3O[C@@H](n4cnc5c(N)ncnc54)[C@H](O)[C@@H]3O)[C@@H](O)[C@H]2O)C=CC1; steady-state kinetics; pH 7, 30 °C, apparent).
With `enzyme (Drosophila melanogaster, UniProt P18105)` the kcat was 0.016 s⁻¹ (Nc1ncnc2c1ncn2[C@@H]1O[C@H](COP(=O)(O)OP(=O)(O)OP(=O)(O)O)[C@@H](O)[C@H]1O; steady-state kinetics; pH 6.8, 25 °C, together with: microtubules, Taxol, Mg2+).
